# Results collected from several papers.
# A part holds a random share of what one study measured.

# Series 1
# Target: Runt-related transcription factor 1 (RUNX1, Homo sapiens, UniProt Q01196, residues 1-453, full length assumed)
# UniProt Q01196, sequence (whole entry, looked up): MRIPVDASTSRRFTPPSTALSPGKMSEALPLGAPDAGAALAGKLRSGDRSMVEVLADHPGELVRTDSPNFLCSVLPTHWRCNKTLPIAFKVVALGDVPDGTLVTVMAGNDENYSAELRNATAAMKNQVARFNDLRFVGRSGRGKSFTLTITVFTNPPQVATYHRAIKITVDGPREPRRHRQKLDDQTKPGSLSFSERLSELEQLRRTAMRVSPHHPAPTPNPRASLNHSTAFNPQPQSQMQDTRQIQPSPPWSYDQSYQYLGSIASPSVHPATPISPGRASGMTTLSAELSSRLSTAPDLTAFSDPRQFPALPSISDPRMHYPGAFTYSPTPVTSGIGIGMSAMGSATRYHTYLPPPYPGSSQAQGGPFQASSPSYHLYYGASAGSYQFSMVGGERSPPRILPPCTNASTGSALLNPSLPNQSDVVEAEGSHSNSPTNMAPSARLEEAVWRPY
# Technique: protein-binding microarray
# Molecule type: double-stranded DNA, one strand shown
# Matrix: in vitro
# Concentration: not given
# Notes: k-mer, scored over probes, only values ≥0.25
# Reading: higher = stronger binding
Oligonucleotide,E-score
GTTATTA,0.252
ACCGCAT,0.468
CCGCACA,0.288
CCGCAGG,0.286
CAATATC,0.265
AACCGCG,0.46
AACCACC,0.345
CACCGCA,0.368
ACCGCAC,0.456
CCGCAGA,0.4
CATGCGG,0.288
CTACCGC,0.273
GCGGTAA,0.386
CCGCAAA,0.462
ACCCACA,0.34
CCCACAA,0.335

# Series 2
# Target: PABPC1L2, full length, GST fusion (mouse, UniProt A0ABA7IW68)
# Technique: RNAcompete
# Molecule type: RNA
# Matrix: in vitro
# Concentration: 20 nM
# Notes: 7-mer, probes averaged, single round
# Baseline: mean of 7-mers
# Reading: higher = stronger binding
# Target sequence (chain): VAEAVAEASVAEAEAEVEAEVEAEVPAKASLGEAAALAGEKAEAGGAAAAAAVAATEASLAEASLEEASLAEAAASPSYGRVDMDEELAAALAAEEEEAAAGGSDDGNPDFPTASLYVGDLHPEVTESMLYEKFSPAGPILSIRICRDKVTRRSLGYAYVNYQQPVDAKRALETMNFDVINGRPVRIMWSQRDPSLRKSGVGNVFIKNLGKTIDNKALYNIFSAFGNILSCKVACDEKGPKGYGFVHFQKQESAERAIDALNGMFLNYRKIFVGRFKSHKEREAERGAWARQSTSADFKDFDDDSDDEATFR
Oligonucleotide,7-mer Z-score
GCAAGGG,0.347
CGUUGUC,-0.49
CAACAGU,-0.11
UAGGUCA,-0.0736
UCUCGGA,-0.0772
GUUAGUG,-0.177
GGAAUUG,-0.0464
AAUGACA,0.234
GUUCGAC,-0.325
AACGAGU,-0.0192
UUCGCUG,-0.492
ACCUUGU,-0.26
GCACUGG,0.1
ACCCUGA,-0.175
AGUUUGG,-0.309
GGUCCGA,0.066
ACCAACU,-0.0808
CUUUUAC,0.075
AGAGGCG,0.0859
GAACGAG,-0.0264
CAUUGAU,-0.0917
CAGGAAG,-0.0156
UGAUUAA,0.0696
CAUGCCC,-0.28
UUUAAUU,-0.0645

# Series 3
# Target: Histone acetyltransferase KAT6A, winged helix 2, GST fusion (KAT6A, Homo sapiens, UniProt Q92794, residues 85-181)
# Technique: protein binding microarray
# Molecule type: double-stranded DNA, one strand shown
# Matrix: in vitro
# Concentration: not given
# Notes: 8-mer, flanks averaged, mean of 2 arrays, mostly near background
# Baseline: not given
# Reading: higher = stronger binding
# Residues (chain): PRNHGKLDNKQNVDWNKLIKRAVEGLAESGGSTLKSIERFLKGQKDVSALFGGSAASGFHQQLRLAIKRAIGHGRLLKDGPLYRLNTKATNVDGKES
Oligonucleotide,E-score
ATGACCGA,0.0116
AACCCTAT,-0.0282
CGGCGGTC,0.0635
GAATCCGA,-0.0133
AAAACGAC,0.0542
CGGAAGAA,-0.0464
CCCAGGAG,-0.00438
GACCTAAC,0.155
CCGCCAGC,0.138
ACACCCGA,0.145
ACCAAAGA,0.152
CTTTGTAC,-0.0968
GATGAACA,0.0771
ACTGTCGA,-0.132
AGAGTGGC,-0.0336
CTTCCCAC,0.0681
CGCAAGCG,0.168
ACTTTTCA,-0.219
CTTAACGA,-0.0655
AGTTCCTC,-0.173
ACCCGTCC,-0.0537
CAGCCAAG,-0.0281
CGCCCACC,0.0735
CTTGTACA,-0.176
GAAGTCGA,-0.00839

# Series 4
# Target: Ras GTPase-activating protein-binding protein 1, full length (G3BP1, Homo sapiens, UniProt Q13283)
# UniProt Q13283, sequence (whole entry, looked up): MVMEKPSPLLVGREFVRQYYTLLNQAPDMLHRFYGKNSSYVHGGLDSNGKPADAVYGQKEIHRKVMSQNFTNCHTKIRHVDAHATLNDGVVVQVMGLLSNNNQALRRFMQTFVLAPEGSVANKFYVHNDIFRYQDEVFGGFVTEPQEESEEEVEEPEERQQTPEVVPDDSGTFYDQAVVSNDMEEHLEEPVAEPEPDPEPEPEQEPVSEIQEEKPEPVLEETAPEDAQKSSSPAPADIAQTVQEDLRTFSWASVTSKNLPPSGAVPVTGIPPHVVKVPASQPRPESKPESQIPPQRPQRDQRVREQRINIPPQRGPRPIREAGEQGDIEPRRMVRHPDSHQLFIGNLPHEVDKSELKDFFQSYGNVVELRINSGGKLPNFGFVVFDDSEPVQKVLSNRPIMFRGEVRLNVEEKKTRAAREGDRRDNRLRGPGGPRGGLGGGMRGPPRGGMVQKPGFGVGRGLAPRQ
# Technique: RNA Bind-n-Seq
# Molecule type: RNA
# Matrix: in vitro
# Concentration: 200 nM
# Notes: whole 134-nt RNA, ends assumed
# Added: 150 mM LiCl
# Baseline: input library
# Reading: higher = stronger binding
# Each molecule: 7-deaza-guanosine replaces G
# Shared flanks, not repeated: GGGAGUUCUACAGUCCGACGAUC … UGGAAUUCUCGGGUGUCAAGG
Oligonucleotide,log2 enrichment
AAGUCCUGUGCUACACAUCGUAUGUACCGAAUCGGGUUUGGGAAAGGGUUUUUGGGAAAGUAUUAUGUUACGCCGUUCGGAUCUGCACUU,-0.94
CCUCAAGUCCUGUGCUACACAUCGUAUGUACCGAAUCGGGGAAGGAAGGAAGGAAAGUAUUAUGUUACGCCGUUCGGAUCUGCACUUCCA,-1.05
ACCAUGCAGGUGGGCAUCUUUGGGAAGUGGGGCAAGAAAGGGAUAGGGAGGGGGGUAACACUUUGGGAACAGGUGGUCCCAGGUCGUUUC,0.387
CACAGACAACACGCACCCACACAGACACAGAGGGAAGGGGUUGGGAAAAGGACAGGGUGCACAGCAGGGCGGGGUAGGACCCCAGCCCCU,0.223
GCAGGAAGUAAAAACAAAUGGAAAUGCUUCGGAUAGUGGCAGGGGUGGGGGUUGCUAAGGAAAGGGUGGGAUCGGAGUGGGUAAAGAGUU,-0.172
ACCAUGCAGGUGGGCAUCUCUGGGAAGUGGGGCAAGGGGGGGAUAGGGAGGGGGGUAACACUUUGGGAACAGGUGGUCCCAGGUCGUUUC,0.0371
UCCUGUGCUACACAUCGUAUGUACCGAAUCGGUUUUUUUGGAAAAAAAGGAAAAAAAGGAAAGUAUUAUGUUACGCCGUUCGGAUCUGCA,-2.04
AGUCCUGUGCUACACAUCGUAUGUACCGAAUCGGGCCCCGGGCCCCGGGCCCCGGGGAAAGUAUUAUGUUACGCCGUUCGGAUCUGCACU,-1.51
UCCUGCCAACCUCUCUUAAUGCUCUGAGAGCCUCUGGUGUUGACAUAGAAGAGGAAACGGAGAAGAACCUGGAAAAGGUACAGACUAUCA,-2.37
UAACUCUAGAGGAGGAUCUGAUGGAUAUGGCAGUGGACGUGGAUUUGGGGAUGGCUAUAAUGGGUAUGGAGGAGGACCUGGAGGUGGCAA,-0.114
ACCAUGCGGGUGGGCAUCUUUGGGAAGUGGGGCAAGGGGGGGAUAGGGAGGGGGGUAACACUUUGGGAACAGGUGGUCCCAGGUCGUUUC,0.269

# Series 5
# Target: Sal-like protein 4, full length isoform B (SALL4, Homo sapiens, UniProt Q9UJQ4-2, residues 1-616)
# Technique: universal PBM
# Molecule type: double-stranded DNA, one strand shown
# Matrix: in vitro
# Concentration: not given
# Notes: 8-mer, flanks averaged, mean of replicates
# Reading: higher = stronger binding
Oligonucleotide,E-score
ACGTCCAA,0.027
GGCAGGAC,-0.256
GACATTCA,0.112
CCCCCCAC,-0.205
CCATCCCC,-0.249
CTTCGTTA,0.0743
AGCGATTA,0.0416
ATGGCGCC,-0.213
CCGAATCC,-0.286
GGAGCCTA,-0.208
ACTACTTG,0.112
ACCCACCA,-0.126
CATTTTCC,0.196
AGGCGTAT,0.191
GCTGTGGA,-0.0779
CTCAATTA,0.173
ACACTTAT,0.225
ATCGCCCG,-0.256
ACGGACGA,-0.0502
ATTTCGAC,0.00219
AAGACCGA,-0.068
AGCACTAC,0.0055
AGCACCCC,-0.315
AAGTCACC,-0.0989
GCCTAGGA,-0.132

# For quick reference, copied from above (series 5):
Oligonucleotide,E-score
ATTTCGAC,0.00219
GGCAGGAC,-0.256
CTTCGTTA,0.0743
GCTGTGGA,-0.0779
GCCTAGGA,-0.132
ATCGCCCG,-0.256
GACATTCA,0.112
